Measured values pooled from the literature.
Each numbered part is a random draw from the data of one study; scales do not carry over between parts.

Set 1 — technique: aptamer microarray, sandwich; form: DNA with 2'F-ANA; medium: in vitro; tested at: 200 nM; together with: Cy3 exosite-II aptamer, 400 nM; direction: higher = stronger binding; quantity: mean fluorescence intensity; oligonucleotide: GGTTGGTGTGGTTGG
Target: Prothrombin, mature alpha-thrombin (F2, Homo sapiens, UniProt P00734)
Setting: whole 15-mer aptamer, many near background
Modification = 2'F-ANA at 2 4 6 8 10 11 14; result = 57.1 a.u.
Modification = 2'F-ANA at 3 5 6 7 8 10 11 15; result = 52.3 a.u.
Modification = 2'F-ANA at 1 4 5 8 9 10 11 12 14 15; result = 60.2 a.u.
Modification = 2'F-ANA at 2 3 4 5 6 7 8 9 10 12 14 15; result = 53.1 a.u.
Modification = 2'F-ANA at 1 3 4 5 6 11 13 15; result = 49.2 a.u.
Modification = 2'F-ANA at 2 7 8 9 11 12 14 15; result = 170 a.u.
Modification = 2'F-ANA at 2 4 5 6 7 8 9 11 15; result = 63.8 a.u.
Modification = 2'F-ANA at 2 3 4 6 8 15; result = 572 a.u.

Set 2 — technique: RNA Bind-n-Seq; form: RNA; medium: in vitro; tested at: 200 nM; setting: whole 134-nt RNA, ends assumed; together with: 150 mM LiCl; relative to: input library; direction: higher = stronger binding; quantity: log2 enrichment; library: 7-deaza-guanosine replaces G
Target: Ras GTPase-activating protein-binding protein 1, full length (G3BP1, Homo sapiens, UniProt Q13283)
Sequence of UniProt Q13283 (whole entry, looked up): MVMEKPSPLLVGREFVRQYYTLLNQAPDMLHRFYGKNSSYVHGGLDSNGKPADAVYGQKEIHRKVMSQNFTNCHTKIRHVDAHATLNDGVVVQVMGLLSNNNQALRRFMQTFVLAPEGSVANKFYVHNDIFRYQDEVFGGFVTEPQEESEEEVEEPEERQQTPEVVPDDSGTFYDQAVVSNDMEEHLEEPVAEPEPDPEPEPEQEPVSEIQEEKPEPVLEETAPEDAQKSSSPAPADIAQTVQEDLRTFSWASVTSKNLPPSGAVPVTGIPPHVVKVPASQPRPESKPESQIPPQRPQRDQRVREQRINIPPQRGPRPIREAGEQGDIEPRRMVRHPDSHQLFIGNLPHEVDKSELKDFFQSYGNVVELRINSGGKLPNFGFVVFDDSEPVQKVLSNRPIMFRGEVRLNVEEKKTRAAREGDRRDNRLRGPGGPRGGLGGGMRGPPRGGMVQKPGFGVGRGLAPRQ
All sequences stand within: GGGAGUUCUACAGUCCGACGAUC … UGGAAUUCUCGGGUGUCAAGG
Oligonucleotide = UCAAGUCCUGUGCUACACAUCGUAUGUACCGAAUCGGGAAAGGGAGGGUUUGGGAAAGUAUUAUGUUACGCCGUUCGGAUCUGCACUUCC; result = -0.0331
Oligonucleotide = CUGUGCUACACAUCGUAUGUACCGAAUCGGGGUUUUUUUGGGGAAAAAAAGGGGUUUGGGGAAAGUAUUAUGUUACGCCGUUCGGAUCUG; result = -1.63
Oligonucleotide = AAGUCCUGUGCUACACAUCGUAUGUACCGAAUCGGGAGGGAAAAAGGGUUUUUGGGAAAGUAUUAUGUUACGCCGUUCGGAUCUGCACUU; result = -1.09
Oligonucleotide = ACCAUGCAGGUGGGCAUCUUUGGGAAGUGGGGCAAGGGGGGGAUAGGGUGGGGGGUAACACUUUGGGAACAGGUGGUCCCAGGUCGUUUC; result = 0.362
Oligonucleotide = UGGCCCUGGUGGCAUGCGGGGAGGAAGAGGUGGCCUCAGGGAUCGUGGUGGUCCCGGUGGAAUGUUCAGAGGUGGCCGUGGUGGAGACAG; result = 0.413
Oligonucleotide = AAGUCCUGUGCUACACAUCGUAUGUACCGAAUCGGUUUGGAAAAAAAGGAAAAAGGAAAGUAUUAUGUUACGCCGUUCGGAUCUGCACUU; result = -1.25
Oligonucleotide = UCCUGUGCUACACAUCGUAUGUACCGAAUCGGGAAAAAAAGGGAAAAAAAGGGAAAGGGAAAGUAUUAUGUUACGCCGUUCGGAUCUGCA; result = 0.32
Oligonucleotide = CUGUGCUACACAUCGUAUGUACCGAAUCGGGGUUUUUGGGGAAAAAAAGGGGUUUUUGGGGAAAGUAUUAUGUUACGCCGUUCGGAUCUG; result = -1.19

Set 3 — technique: Spec-seq; form: double-stranded DNA, one strand shown; medium: in vitro; tested at: not given; setting: whole probe, mean of replicates; relative to: not given; direction: lower = stronger binding; quantity: relative binding energy; all sequences stand within: GAGTCGTCTCGTCAGCAC … CCGTAGAGCACTCAGGTC
Target: Transcription factor SOX-2, HMG box (Sox2, Mus musculus, UniProt P48432, residues 41-119)
Sequence of UniProt P48432 (41-119, looked up): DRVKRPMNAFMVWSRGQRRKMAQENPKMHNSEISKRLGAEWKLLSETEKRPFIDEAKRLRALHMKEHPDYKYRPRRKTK
Oligonucleotide = GGGCGTT; result = 1.69 ln ratio
Oligonucleotide = TCGTGTT; result = 0.592 ln ratio
Oligonucleotide = TAGAGTT; result = 0.835 ln ratio
Oligonucleotide = CCGGGTT; result = 1.54 ln ratio
Oligonucleotide = TATAGTT; result = -1.14 ln ratio
Oligonucleotide = CATCCAG; result = 0.392 ln ratio
Oligonucleotide = CATGACA; result = 0.286 ln ratio
Oligonucleotide = CACGGTT; result = 0.86 ln ratio

Other studies, line by line
Compound = Clc1ccc(C(c2ccccc2Cl)C(Cl)Cl)cc1 (stereo not shown); cell line = A-375; tested at = 100 µM; time = 18 h; quantity = viability; result = 8.3%
